Assay results collected from several papers.
Every numbered part comes from another study and shows a few of its results, in no order. Values joined by “and” are separate records of one study, mostly repeats; a detail may differ. ± gives the spread as reported.
Chain of UniProt Q02750 (whole entry, looked up): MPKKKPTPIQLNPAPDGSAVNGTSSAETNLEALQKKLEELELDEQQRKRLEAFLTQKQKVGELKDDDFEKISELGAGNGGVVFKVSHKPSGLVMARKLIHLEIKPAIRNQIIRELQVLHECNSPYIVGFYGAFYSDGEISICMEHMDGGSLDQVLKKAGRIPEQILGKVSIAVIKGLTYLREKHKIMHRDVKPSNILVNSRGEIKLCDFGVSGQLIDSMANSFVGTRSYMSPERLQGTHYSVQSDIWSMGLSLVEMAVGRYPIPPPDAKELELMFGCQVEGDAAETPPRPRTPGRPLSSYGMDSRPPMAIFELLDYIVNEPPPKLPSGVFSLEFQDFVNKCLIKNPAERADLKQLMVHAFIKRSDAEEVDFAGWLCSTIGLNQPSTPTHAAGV
Chain of UniProt O15111 (whole entry, looked up): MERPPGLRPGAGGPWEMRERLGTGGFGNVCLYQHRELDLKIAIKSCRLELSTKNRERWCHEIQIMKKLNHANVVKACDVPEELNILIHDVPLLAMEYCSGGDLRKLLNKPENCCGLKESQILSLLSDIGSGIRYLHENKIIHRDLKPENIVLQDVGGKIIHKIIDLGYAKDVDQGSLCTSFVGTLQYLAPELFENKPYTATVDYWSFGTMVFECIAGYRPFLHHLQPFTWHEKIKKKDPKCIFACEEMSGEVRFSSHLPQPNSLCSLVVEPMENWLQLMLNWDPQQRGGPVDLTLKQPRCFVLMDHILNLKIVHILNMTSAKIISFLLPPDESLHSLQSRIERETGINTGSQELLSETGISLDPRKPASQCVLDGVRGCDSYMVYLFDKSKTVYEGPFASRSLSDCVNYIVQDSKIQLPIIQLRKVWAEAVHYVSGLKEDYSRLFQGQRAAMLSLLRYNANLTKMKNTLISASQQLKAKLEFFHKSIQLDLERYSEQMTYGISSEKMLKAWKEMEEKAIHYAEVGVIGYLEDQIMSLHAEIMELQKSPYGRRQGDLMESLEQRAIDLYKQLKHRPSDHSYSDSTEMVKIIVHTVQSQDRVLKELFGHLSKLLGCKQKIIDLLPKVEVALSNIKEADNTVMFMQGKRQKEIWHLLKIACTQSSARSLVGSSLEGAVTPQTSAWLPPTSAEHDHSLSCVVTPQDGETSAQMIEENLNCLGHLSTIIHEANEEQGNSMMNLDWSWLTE

Series 1
Compound: C[C@@H]1CN(c2ccc(-c3cc(C(=O)NCCOCCOCCOCCOCCNC(=O)/C=C/c4[nH]cc(C(=O)N[C@@H](CC(N)=O)c5ccc(F)c(Cl)c5)c4-c4ccc(Cl)cc4F)ccc3F)cc2NC(=O)c2c[nH]c(=O)cc2C(F)(F)F)C[C@H](C)N1C
Effect on: thermal unfolding
Method: differential scanning fluorimetry
Concentration: 5.5 µM
Reading: higher = more unfolded
WDR5: WD repeat-containing protein 5 (WDR5, Homo sapiens, UniProt P61964)
DCAF1: DDB1- and CUL4-associated factor 1 (DCAF1, Homo sapiens, UniProt Q9Y4B6)
Chain of UniProt Q9Y4B6 (whole entry, looked up): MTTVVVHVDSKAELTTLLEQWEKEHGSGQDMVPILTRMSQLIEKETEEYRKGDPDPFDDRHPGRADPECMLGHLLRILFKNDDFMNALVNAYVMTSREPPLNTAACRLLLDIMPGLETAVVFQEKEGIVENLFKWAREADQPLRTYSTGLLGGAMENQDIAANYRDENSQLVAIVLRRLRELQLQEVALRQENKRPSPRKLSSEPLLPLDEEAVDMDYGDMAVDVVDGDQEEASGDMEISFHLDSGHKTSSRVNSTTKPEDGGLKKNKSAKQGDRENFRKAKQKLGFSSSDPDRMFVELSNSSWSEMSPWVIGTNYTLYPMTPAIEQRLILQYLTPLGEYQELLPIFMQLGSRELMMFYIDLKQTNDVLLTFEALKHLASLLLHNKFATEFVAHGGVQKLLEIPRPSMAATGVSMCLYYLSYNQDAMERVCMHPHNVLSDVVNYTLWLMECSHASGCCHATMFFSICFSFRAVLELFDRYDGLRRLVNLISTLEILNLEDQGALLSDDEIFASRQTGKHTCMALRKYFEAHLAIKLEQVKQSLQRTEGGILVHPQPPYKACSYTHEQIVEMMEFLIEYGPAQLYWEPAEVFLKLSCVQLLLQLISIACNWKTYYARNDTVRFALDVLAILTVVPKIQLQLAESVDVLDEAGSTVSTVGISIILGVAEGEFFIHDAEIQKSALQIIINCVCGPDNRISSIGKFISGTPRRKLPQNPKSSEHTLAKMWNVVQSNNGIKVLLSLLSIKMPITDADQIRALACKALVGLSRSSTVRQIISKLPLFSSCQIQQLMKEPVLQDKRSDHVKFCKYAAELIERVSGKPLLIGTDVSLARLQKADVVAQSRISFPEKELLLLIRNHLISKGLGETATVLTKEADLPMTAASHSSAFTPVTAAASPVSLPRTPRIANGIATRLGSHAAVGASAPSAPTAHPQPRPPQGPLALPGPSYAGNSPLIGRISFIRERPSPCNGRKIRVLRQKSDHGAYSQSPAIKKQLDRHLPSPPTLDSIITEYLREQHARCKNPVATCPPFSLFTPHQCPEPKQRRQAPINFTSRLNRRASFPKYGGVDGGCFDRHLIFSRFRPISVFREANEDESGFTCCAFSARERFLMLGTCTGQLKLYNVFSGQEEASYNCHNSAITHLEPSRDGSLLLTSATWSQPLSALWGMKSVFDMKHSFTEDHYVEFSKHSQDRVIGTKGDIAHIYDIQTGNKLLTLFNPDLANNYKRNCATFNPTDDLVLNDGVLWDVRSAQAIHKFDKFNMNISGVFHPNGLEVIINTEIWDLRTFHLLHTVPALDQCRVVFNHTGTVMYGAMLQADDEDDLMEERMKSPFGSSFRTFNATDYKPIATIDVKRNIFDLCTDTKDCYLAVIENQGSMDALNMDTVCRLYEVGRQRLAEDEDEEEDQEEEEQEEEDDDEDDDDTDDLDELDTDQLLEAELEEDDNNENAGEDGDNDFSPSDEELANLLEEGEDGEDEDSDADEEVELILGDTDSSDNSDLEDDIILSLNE
target	conditions	SYPRO Orange fluorescence
WDR5	66.01 °C	14100 a.u.
WDR5	31.6 °C	12700 a.u.
WDR5	84.81 °C	52000 a.u.
DCAF1	61.61 °C	48400 a.u.
WDR5	85.61 °C	53000 a.u.
DCAF1	39.2 °C	11300 a.u.
DCAF1	90.21 °C	34800 a.u.
DCAF1	92.61 °C	32100 a.u.
WDR5	50.6 °C	16600 a.u.
DCAF1	77.21 °C	47800 a.u.
WDR5	38.8 °C	14100 a.u.

Series 2
Compound: CC[C@@]1(c2ccccc2)C2=C(CC(C)(C)CC2=O)Nc2n[nH]cc21
Concentration: 1 µM
target	test	scale	remaining binding [%]
Tyrosine-protein kinase ABL1, non-phosphorylated (ABL1, Homo sapiens, UniProt P00519, Q252H)	binding, competition with immobilised ligand		65
Tyrosine-protein kinase JAK1, JH1 (JAK1, Homo sapiens, UniProt P23458)	binding, competition with immobilised ligand		87
Vascular endothelial growth factor receptor 2 (KDR, Homo sapiens, UniProt P35968)	kinase binding, KINOMEscan	baseline: DMSO control	100
Serine/threonine-protein kinase RIO2 (RIOK2, Homo sapiens, UniProt Q9BVS4)	binding, competition with immobilised ligand		100
Dual specificity mitogen-activated protein kinase kinase 1 (MAP2K1, Homo sapiens, UniProt Q02750)	kinase binding, KINOMEscan	baseline: DMSO control	95
Mitogen-activated protein kinase kinase kinase 6 (MAP3K6, Homo sapiens, UniProt O95382)	kinase binding, KINOMEscan	baseline: DMSO control	100
Dual specificity tyrosine-phosphorylation-regulated kinase 1B (DYRK1B, Homo sapiens, UniProt Q9Y463)	binding, competition with immobilised ligand		86
Ephrin type-A receptor 4 (EPHA4, Homo sapiens, UniProt P54764)	binding, competition with immobilised ligand		67
Myosin light chain kinase (MYLK3, Homo sapiens, UniProt Q32MK0)	binding, competition with immobilised ligand		89
Serine/threonine-protein kinase OSR1 (OXSR1, Homo sapiens, UniProt O95747)	kinase binding, KINOMEscan	baseline: DMSO control	100
Serine/threonine-protein kinase ULK2 (ULK2, Homo sapiens, UniProt Q8IYT8)	binding, competition with immobilised ligand		100
cGMP-dependent protein kinase 2 (PRKG2, Homo sapiens, UniProt Q13237)	binding, competition with immobilised ligand		100
MAP kinase-interacting serine/threonine-protein kinase 1 (MKNK1, Homo sapiens, UniProt Q9BUB5)	kinase binding, KINOMEscan	baseline: DMSO control	100
Inhibitor of nuclear factor kappa-B kinase subunit alpha (CHUK, Homo sapiens, UniProt O15111)	kinase binding, KINOMEscan	baseline: DMSO control	100

Series 3
SMILES: C=CC(=O)N1CCN(c2nc(OC[C@@H]3CCCN3C)nc3c2CCN(c2cccc4cccc(C)c24)C3)C[C@@H]1CC#N
Effect on: binding
Mode: competitor
Method: NanoBRET
Cell line: HEK293
KRAS G12D: GTPase KRas (KRAS, Homo sapiens, UniProt P01116, G12D)
KRAS Q61R: GTPase KRas (KRAS, Homo sapiens, UniProt P01116, Q61R)
target	conditions	normalized BRET
KRAS G12D	6.67 µM	36.2% and 27.9%
KRAS G12D	9.14 nM	98.2% and 95.4%
KRAS Q61R	82.2 nM	103% and 100% and 88.2%
KRAS Q61R	27.4 nM	104% and 99.3% and 88%
GTPase HRas (HRAS, Homo sapiens, UniProt P01112)	6.67 µM	129% and 108%
KRAS Q61R	9.14 nM	92.6% and 97.3% and 102%

Series 4
SMILES: Cc1ccc(O)c(C)c1-c1cnc2[nH]c(-c3cnc(N4CCC(CN5CCN(c6ccc7c(c6)CN(C6CCC(=O)NC6=O)C7=O)CC5)CC4)nc3)cc2c1C#N (stereo not shown)
Target: Membrane-associated tyrosine- and threonine-specific cdc2-inhibitory kinase (PKMYT1, Homo sapiens, UniProt Q99640)
Target sequence (Q99640 1-499): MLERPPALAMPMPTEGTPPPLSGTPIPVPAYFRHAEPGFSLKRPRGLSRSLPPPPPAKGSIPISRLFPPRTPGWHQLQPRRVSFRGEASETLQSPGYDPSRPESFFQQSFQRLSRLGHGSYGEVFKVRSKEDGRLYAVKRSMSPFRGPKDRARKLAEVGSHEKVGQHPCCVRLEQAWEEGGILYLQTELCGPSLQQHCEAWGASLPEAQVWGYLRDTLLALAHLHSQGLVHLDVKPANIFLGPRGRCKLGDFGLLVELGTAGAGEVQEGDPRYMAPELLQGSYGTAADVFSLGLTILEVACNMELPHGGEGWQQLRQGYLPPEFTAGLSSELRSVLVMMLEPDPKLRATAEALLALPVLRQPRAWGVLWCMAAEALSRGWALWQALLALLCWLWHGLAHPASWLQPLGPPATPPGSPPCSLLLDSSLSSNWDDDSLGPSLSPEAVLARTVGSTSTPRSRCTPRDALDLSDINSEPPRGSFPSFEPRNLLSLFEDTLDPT
test	conditions	inhibition [%]
cell-free assay, inhibitor, TR-FRET	1.37 nM	25.3
cell-free assay, inhibitor, TR-FRET	0.1111 µM	100
cell-free assay, inhibitor, TR-FRET	37.04 nM	99.1
cell-free assay, inhibitor, TR-FRET	51 pM	1.24
	0.00046 µM	8.74
	0.03704 µM	98.9
cell-free assay, inhibitor, TR-FRET	460 pM	8.51
	0.000152 µM	-1.5
cell-free assay, inhibitor, TR-FRET	1 µM	101
cell-free assay, inhibitor, TR-FRET	4.12 nM	63

Series 5
SMILES: O=C(Nc1ccccc1)Nc1cccc(Oc2ccc3nccn3n2)c1
Effect on: enzyme activity
Mode: inhibitor
Method: radiometric
target	IC50 [nM]
Angiopoietin-1 receptor (TEK, Homo sapiens, UniProt Q02763)	> 10000
Citron Rho-interacting kinase (CIT, Homo sapiens, UniProt O14578)	3000
Mitogen-activated protein kinase kinase kinase 19 (MAP3K19, Homo sapiens, UniProt Q56UN5)	1300
Vascular endothelial growth factor receptor 3 (FLT4, Homo sapiens, UniProt P35916)	160

Series 6
SMILES: O=C(O)C1Oc2cc(F)ccc2N(Cc2ccccc2)C1=O (stereo not shown)
Organism: Arabidopsis thaliana
Strain: Col-0
Matrix: seedlings
test	conditions	scale	inhibition [%]
root length	50 µg/mL		27.8
root length	25 µg/mL	baseline: water control	20.2
root length	25 µg/mL		20.2
hypocotyl length	100 µg/mL		36.4
hypocotyl length	12.5 µg/mL		12.8
root length	50 µg/mL	baseline: water control	27.8
root length	6.25 µg/mL	baseline: water control	10.8

Series 7
SMILES: NC/C(=C\F)COc1cccc(Cn2c(=S)[nH]c(=O)c3[nH]ccc32)c1
AOC3: Amine oxidase [copper-containing] 3 (AOC3, Homo sapiens, UniProt Q16853)
Chain of UniProt Q16853 (whole entry, looked up): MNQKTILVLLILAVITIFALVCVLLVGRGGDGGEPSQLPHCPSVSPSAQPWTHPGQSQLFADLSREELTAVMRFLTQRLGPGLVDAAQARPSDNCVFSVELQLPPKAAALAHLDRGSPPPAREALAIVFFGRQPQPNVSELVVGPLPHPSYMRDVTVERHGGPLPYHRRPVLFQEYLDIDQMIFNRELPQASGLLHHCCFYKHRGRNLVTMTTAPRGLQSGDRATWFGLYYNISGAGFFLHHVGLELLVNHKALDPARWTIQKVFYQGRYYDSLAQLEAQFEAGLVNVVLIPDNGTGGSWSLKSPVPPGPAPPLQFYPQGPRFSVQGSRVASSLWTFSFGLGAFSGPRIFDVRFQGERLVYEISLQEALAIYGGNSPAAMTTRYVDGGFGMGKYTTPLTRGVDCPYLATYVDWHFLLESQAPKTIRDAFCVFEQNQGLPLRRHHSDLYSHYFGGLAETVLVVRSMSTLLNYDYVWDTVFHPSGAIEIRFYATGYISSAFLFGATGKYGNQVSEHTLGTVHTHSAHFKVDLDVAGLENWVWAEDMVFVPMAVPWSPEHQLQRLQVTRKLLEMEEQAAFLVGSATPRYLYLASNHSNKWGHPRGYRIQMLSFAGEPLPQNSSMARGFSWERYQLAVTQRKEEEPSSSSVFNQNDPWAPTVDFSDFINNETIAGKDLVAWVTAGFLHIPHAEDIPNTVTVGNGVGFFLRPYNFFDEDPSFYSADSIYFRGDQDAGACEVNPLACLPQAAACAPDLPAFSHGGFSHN
MPO: Myeloperoxidase (MPO, Homo sapiens, UniProt P05164)
Chain of UniProt P05164 (whole entry, looked up): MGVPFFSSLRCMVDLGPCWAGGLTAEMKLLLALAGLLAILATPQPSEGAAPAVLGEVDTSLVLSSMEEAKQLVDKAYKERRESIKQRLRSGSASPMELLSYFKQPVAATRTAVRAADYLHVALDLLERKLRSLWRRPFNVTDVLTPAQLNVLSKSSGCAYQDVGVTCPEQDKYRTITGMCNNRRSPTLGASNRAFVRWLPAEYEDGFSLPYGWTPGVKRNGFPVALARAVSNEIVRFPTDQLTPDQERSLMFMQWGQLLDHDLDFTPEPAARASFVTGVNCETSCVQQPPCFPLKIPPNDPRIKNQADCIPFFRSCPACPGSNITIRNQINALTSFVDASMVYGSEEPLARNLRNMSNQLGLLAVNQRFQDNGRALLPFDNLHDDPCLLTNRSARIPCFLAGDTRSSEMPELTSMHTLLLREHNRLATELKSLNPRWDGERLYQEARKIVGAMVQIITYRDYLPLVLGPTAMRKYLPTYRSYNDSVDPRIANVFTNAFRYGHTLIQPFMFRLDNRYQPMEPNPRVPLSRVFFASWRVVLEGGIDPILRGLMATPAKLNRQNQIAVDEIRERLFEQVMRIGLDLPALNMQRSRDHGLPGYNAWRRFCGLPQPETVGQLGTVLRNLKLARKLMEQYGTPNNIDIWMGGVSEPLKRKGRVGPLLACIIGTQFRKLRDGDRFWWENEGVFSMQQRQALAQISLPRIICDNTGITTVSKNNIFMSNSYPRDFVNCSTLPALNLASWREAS
target	test	conditions	inhibition
AOC3	enzyme activity, inhibitor, fluorescence	0.1235 µM	97.6% and 95.9% and 97.9% and 88% and 97.4% and 94.4%
MPO	enzyme activity, inhibitor, fluorescence	0.5556 µM	98.3% and 98% and 99.5%
MPO	Amplex Red	0.0206 µM	52.7% and 71.6% and 47%
MPO	enzyme activity, inhibitor, fluorescence	200 pM	6.42%
AOC3	enzyme activity, inhibitor, fluorescence	41.2 nM	84.2% and 92.4% and 84.7% and 68.8% and 88.1% and 91.7%
MPO	enzyme activity, inhibitor, fluorescence	61.7 nM	83.2% and 83.3% and 95.2%
MPO	enzyme activity, inhibitor, fluorescence	3.333 µM	99.5% and 99.4% and 98.9%

Single results of other studies
CDK12 with cyclin K: Cyclin-dependent kinase 12, with cyclin K (CDK12, Homo sapiens, UniProt Q9NYV4)
BTK: Tyrosine-protein kinase BTK (BTK, Homo sapiens, UniProt Q06187)
Chain of UniProt Q06187 (whole entry, looked up): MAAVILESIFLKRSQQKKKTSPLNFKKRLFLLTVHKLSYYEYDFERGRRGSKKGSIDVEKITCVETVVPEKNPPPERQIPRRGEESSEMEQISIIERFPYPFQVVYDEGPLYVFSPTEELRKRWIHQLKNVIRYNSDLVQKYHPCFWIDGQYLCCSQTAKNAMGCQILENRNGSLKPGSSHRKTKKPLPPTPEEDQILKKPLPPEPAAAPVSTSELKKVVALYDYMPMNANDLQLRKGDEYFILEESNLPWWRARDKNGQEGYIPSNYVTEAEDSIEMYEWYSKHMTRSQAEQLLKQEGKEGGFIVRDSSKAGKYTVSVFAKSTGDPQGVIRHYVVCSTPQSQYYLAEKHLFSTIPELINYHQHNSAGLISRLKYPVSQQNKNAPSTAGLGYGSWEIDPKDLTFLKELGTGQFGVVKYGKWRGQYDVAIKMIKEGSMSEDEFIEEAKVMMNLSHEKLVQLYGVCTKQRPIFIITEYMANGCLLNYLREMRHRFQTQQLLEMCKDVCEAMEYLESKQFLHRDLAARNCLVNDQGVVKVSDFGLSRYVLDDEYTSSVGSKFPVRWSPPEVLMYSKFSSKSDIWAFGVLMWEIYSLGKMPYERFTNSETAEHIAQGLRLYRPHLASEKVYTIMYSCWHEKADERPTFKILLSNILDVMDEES
Structure (SMILES)	tested on	test	test system	conditions	scale	measurement	result
CCn1cnc2c(NCc3nc4cc(F)c(F)cc4[nH]3)nc(N3CCn4ncnc4C3)nc21	MDA-MB-231	degrader, western blot, item: cyclin K		5 nM, 24 h		degradation	40.3%
CCN1CCN(Cc2ccc(COc3c(-c4c(C)c(F)cc5[nH]ncc45)c(C4CC4)cc4c(N5C[C@@H]6C[C@H]5CN6)nc(OC5CCOCC5)nc34)cc2)C(=O)C1	AsPC-1 (KRAS G12D)	cell viability, CellTiter-Glo				IC50	178 nM and 296 nM
Cc1nc(C)c(C=[N+]([O-])C(C)(C)C)nc1C	rat cerebellar granule neurons	TUNEL		300 µM, 2 h pretreatment, with: MPP+ 150 µM for 24 h		apoptotic cells	31.3%
COc1cc(C(=O)OCCCN2CCCN(CCCOC(=O)c3cc(OC)c(OC)c(OCc4ccc([N+](=O)[O-])cc4)c3)CC2)cc(OC)c1OC		mechanical pain, von Frey test	mouse, STZ diabetic neuropathy	intravenous, 30 mg/kg, 24 h post-dose, first injection, day 8		paw withdrawal threshold	0.32 g and 0.08 g and 0.29 g and 0.17 g and 0.03 g
COCC1CC2C(CCC3(C)C(O)CCC23)c2ccc(O)cc21 (stereo not shown)	A549	DNA microarray, item: CCL11		concentration not given	baseline: untreated A549 cells	log2 expression ratio	0
CCOC(=O)/C=C/CNCCCCN1c2cc(Cl)ccc2CCc2cnn(C)c21	NCI-H292	cell growth or viability, ATP luminescence				IC50	2260 nM
CCn1cnc2c(NCc3nc4cc(Cl)c(Cl)cc4[nH]3)nc(N3CCN(C(=O)CNC(C)=O)CC3)nc21	CDK12 with cyclin K	kinase activity, inhibitor, ADP-Glo		0.0009 µM		inhibition	-5%
Cc1ncsc1-c1ccc(C2(NC(=O)C3CC(O)CN3C(=O)C(NC(=O)c3ccc(COc4c(-c5c(C)c(F)cc6[nH]ncc56)c(C5CC5)cc5c(N6CC7CC6CN7)nc(OC6CCOCC6)nc45)cc3)C(C)(C)C)CC2)cc1 (stereo not shown)	GTPase KRas, GDP-bound (KRAS, Homo sapiens, UniProt P01116, G12D)	SPR, single-cycle	immobilized KRAS G12D	binary, geometric mean		koff	0.0156 s⁻¹
CCOc1ccc2nc(Sc3nc(Nc4ccc(I)cc4)nc(N4CCOCC4)n3)sc2c1	Gaucher fibroblasts	qPCR, item: GBA1		10 µM, 24 h, unit not given	baseline: DMSO	mRNA level	2.02 and 1.45 and 2.99 and 2.55 and 2.95 and 2.62 and 1.94
Cc1ncsc1-c1ccc(C(CO)NC(=O)C2CC(O)CN2C(=O)C(NC(=O)c2ccc(COc3c(-c4c(C)c(F)cc5[nH]ncc45)c(C4CC4)cc4c(N5CC6CC5CN6)nc(OC5CCOCC5)nc34)cc2)C(C)C)cc1 (stereo not shown)	ASPC1	cell growth or viability, ATP luminescence				IC50	128 nM
COCC1CC2C(CCC3C(O)CCC32)c2ccc(O)cc21 (stereo not shown)	SK-OV-3	DNA microarray, item: KIF20A		25 µM	baseline: untreated cells	log2 fold change	-0.0494 and -0.0936 and -0.0938 and 0.0109 and -0.0865
CN(C1COC1)C(C)(C)C=C(C#N)C(=O)N1CCCC1Cn1nc(-c2ccc(Oc3ccccc3)cc2F)c2c(N)ncnc21 (stereo not shown)	BTK	enzyme activity, inhibitor		15 min preincubation, with: 16 µM ATP		IC50	4.4 ± 0.8 nM
CCN1/C(=C/C=C2\CCCC(/C=C/C3=[N+](CC)c4ccccc4C3(C)C)=C2NCCCCCCCCN2CCC(Nc3nc4ccccc4n3Cc3ccc(F)cc3)CC2)C(C)(C)c2ccccc21		dynamic light scattering	PBS	pH 7.4		particle diameter	524 nm
CC(C)/C=C(\C#N)C(=O)N1CCC[C@@H](n2nc(-c3ccc(Oc4ccccc4)cc3)c3c(N)ncnc32)C1	BTK	target occupancy, PP-BODIPY competition labelling	Ramos	1 h		EC50	43.2 ± 7 nM
CCONC(=O)/C=C/CNCCCCN1c2cc(Cl)ccc2CCc2cnn(C)c21	NCI-H292	cell growth or viability, ATP luminescence				IC50	5400 nM
CCn1cnc2c(NCc3nc4ccc(F)c(F)c4[nH]3)nc(N3CCn4ncnc4C3)nc21	CDK12 with cyclin K	inhibitor, ADP-Glo kinase				IC50	169 nM
CC(C)(C=C(C#N)C(=O)N1CCCC1Cn1nc(-c2ccc(Oc3ccccc3)cc2F)c2c(N)ncnc21)N1CCOCC1 (stereo not shown)	BTK	fluorescence competition		room temperature		residence time	3.4 ± 0.3 h
